Experimental data pooled from the literature.
Numbered parts are unrelated; each lists some results of a single study.
UniProt Q9UF33, sequence (whole entry, looked up): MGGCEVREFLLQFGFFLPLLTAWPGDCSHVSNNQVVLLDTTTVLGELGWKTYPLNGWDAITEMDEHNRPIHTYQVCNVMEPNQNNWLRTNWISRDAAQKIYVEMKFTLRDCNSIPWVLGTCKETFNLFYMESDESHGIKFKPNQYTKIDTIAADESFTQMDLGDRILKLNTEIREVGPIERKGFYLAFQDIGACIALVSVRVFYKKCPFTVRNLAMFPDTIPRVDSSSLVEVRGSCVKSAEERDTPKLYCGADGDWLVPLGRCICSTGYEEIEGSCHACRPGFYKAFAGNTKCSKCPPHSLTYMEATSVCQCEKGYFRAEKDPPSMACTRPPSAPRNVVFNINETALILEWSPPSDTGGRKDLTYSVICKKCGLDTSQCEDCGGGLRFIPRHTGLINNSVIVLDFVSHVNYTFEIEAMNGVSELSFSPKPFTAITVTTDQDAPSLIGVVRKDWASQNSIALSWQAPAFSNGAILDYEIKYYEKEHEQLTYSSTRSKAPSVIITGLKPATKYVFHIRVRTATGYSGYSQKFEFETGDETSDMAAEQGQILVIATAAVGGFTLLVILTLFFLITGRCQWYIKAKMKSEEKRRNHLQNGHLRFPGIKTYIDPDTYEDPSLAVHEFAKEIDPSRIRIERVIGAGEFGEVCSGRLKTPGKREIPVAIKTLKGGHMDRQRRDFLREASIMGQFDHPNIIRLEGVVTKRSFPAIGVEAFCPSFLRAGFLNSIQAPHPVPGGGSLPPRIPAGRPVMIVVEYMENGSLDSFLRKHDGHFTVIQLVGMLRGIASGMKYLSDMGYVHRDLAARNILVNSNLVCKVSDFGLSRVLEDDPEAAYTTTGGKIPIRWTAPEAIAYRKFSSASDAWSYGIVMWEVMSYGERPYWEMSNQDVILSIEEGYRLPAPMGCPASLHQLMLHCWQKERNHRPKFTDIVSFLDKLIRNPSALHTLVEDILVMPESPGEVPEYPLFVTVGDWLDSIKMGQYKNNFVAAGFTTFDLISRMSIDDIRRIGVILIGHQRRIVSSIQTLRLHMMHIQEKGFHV
UniProt O95747, sequence (whole entry, looked up): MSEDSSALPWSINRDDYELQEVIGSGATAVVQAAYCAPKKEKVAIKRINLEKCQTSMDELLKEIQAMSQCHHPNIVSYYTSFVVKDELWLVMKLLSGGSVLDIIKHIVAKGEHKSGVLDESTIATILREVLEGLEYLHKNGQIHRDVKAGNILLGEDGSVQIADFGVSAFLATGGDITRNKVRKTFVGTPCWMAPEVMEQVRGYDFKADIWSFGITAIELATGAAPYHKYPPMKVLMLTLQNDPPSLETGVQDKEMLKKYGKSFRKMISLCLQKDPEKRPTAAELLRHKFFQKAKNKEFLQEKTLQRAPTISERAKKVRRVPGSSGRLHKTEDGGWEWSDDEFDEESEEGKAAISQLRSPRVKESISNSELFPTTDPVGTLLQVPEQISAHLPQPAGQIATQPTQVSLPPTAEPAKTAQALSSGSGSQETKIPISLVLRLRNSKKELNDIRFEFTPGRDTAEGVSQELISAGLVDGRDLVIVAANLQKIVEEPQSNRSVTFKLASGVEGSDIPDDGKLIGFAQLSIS
UniProt Q9Y3S1, sequence (whole entry, looked up): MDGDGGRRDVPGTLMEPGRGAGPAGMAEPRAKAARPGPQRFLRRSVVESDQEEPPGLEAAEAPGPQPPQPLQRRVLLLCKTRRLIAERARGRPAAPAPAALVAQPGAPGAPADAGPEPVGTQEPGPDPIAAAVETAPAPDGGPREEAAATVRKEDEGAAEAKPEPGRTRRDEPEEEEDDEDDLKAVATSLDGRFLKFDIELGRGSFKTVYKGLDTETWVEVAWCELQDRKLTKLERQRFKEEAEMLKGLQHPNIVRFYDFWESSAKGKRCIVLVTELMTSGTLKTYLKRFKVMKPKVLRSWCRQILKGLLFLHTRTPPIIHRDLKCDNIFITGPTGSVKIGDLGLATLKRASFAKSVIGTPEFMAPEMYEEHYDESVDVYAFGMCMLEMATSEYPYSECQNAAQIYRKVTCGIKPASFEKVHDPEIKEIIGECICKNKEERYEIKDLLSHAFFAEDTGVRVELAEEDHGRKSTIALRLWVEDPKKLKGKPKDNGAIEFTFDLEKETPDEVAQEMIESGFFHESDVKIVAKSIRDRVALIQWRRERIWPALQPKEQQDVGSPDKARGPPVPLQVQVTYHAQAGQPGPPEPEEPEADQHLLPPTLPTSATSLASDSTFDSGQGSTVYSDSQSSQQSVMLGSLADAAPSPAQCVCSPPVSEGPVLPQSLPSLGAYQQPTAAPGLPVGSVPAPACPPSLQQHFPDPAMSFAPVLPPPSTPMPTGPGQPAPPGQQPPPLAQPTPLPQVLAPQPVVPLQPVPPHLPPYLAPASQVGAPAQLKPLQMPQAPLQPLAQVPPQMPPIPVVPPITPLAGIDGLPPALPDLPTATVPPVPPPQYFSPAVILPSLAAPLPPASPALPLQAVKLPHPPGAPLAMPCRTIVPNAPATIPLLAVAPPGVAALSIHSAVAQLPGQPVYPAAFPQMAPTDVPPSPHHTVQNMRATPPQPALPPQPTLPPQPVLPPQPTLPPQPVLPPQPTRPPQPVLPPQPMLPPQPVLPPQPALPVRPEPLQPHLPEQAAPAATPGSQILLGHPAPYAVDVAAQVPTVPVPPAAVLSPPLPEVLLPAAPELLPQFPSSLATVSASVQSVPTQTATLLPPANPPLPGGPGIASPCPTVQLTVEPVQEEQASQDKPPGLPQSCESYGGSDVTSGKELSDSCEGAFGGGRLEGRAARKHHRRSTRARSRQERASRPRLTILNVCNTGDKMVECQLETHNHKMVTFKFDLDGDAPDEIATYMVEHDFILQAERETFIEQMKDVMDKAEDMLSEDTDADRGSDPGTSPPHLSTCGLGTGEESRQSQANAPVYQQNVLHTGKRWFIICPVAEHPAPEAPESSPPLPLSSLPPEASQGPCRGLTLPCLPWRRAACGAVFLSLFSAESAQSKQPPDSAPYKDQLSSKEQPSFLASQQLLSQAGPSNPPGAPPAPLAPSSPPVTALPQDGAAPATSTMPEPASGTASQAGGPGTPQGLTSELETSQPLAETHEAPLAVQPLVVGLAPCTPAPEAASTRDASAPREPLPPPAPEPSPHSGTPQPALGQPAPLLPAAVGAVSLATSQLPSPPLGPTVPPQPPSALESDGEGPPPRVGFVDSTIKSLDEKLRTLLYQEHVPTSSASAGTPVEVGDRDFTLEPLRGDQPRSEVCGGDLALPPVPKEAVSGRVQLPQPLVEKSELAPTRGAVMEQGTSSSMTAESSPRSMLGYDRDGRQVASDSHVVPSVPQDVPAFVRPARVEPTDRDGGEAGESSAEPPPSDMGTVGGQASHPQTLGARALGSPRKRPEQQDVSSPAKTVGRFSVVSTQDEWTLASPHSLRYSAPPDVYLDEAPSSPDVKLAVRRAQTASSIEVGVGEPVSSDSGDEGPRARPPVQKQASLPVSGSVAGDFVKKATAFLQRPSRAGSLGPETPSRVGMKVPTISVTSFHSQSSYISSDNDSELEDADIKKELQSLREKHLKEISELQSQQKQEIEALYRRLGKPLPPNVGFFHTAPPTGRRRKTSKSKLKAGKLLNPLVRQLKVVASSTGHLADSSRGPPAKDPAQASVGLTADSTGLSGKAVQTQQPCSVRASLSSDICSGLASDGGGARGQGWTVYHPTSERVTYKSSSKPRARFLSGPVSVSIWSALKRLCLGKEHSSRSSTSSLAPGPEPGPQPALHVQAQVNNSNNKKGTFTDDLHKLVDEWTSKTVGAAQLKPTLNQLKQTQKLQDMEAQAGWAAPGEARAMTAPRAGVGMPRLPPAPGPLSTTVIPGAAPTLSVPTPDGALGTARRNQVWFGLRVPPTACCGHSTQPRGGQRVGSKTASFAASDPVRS

Study 1
Target: Fibroblast growth factor receptor 2 (FGFR2, Homo sapiens, UniProt P21802)
UniProt P21802, sequence (whole entry, looked up): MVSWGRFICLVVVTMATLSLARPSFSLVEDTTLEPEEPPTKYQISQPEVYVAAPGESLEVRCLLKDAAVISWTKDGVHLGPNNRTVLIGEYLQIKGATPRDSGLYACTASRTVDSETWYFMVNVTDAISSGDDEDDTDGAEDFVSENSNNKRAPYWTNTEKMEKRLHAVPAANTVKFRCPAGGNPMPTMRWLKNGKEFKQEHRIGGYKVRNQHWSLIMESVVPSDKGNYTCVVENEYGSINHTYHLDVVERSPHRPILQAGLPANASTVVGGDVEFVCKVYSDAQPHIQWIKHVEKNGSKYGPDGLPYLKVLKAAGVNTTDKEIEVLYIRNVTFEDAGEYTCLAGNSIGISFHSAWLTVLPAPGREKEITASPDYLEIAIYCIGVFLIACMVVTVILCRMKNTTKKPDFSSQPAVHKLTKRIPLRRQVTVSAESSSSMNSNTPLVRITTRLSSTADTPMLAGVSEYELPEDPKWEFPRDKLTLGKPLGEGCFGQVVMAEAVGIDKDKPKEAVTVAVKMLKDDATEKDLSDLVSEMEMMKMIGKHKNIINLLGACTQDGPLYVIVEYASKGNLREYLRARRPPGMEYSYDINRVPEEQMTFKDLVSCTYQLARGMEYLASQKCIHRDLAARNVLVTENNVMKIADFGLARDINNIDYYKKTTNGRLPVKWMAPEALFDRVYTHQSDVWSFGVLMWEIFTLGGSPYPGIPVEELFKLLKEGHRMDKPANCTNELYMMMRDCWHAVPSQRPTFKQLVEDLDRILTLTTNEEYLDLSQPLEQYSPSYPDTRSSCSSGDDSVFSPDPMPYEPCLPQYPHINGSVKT
Read-out: enzyme activity
Mode: inhibitor
Concentration: 0.5 µM
Baseline: control
Measurement: remaining activity
COc1cc2ncnc(Nc3cccc(Cl)c3)c2cc1OC: 97.5%
O=c1cc(-c2cccc3c2Sc2ccccc2S3)oc(N2CCOCC2)c1: 98.7%
N#Cc1c(NC(=O)c2cccc3ccccc23)sc2c1CCCC2: 110%
CN([C@@H](Cc1ccc(OS(=O)(=O)c2cccc3cnccc23)cc1)C(=O)N1CCN(c2ccccc2)CC1)S(=O)(=O)c1cccc2cnccc12: 98.1%
CCN(CC)CCNC(=O)c1c(C)[nH]c(/C=C2\C(=O)Nc3ccc(Cl)cc32)c1C: 29.3%
COc1cc2ncnc(Nc3ccc(O)c(Br)c3)c2cc1OC: 95.9%
Nc1cccc(-c2cc3c(Oc4cccc(O)c4)ncnc3[nH]2)c1: 46.1%
Ic1cccc(CSc2nnc(-c3ccncc3)o2)c1: 101%
O=C1c2ccccc2-c2n[nH]c3cccc1c23: 92.3%
c1ccc(-c2[nH]ncc2-c2ccnc3ccccc23)nc1: 110%
O=C(Nc1cccc(Nc2nccc(Nc3cccc(C(F)(F)F)c3)n2)c1)C1CC1: 103%
CCN(CC)CCNC(=O)c1c(C)[nH]c(/C=C2\C(=O)Nc3ccc(F)cc32)c1C: 50.5%
CCN(CC)C(=O)c1ccc(Nc2nc(OCC3CCCCC3)c3[nH]cnc3n2)cc1: 76.6%

Study 2
Target: RNA binding protein fox-1 homolog 2, RRM domain, GST-SBP tag (RBFOX2, Homo sapiens, UniProt O43251-10, residues 100-194)
Technique: RNA Bind-n-Seq
Molecule type: RNA
Medium: in vitro
Concentration: 365 nM
Setting: natural RNA segment, single round, ends assumed
Baseline: no-protein control
Direction: higher = stronger binding
Measurement: RBNS enrichment (R)
Constant ends, left off below: GGGAGUUCUACAGUCCGACGAUC … UGGAAUUCUCGGGUGCCAA
Residues (chain): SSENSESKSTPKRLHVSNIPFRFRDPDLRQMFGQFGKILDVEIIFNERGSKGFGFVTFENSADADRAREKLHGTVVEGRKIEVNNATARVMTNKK
GUGCGCUGGGCAGGAGGAAGGCAUGUGCUUCCUCCCCAGCCACCACCCCUCCCACAGCACCCAGCCUCACUACCCCAGCAUGGGGUACCCAGCUGGAUACUCCCAAAAUG: 9.92
UGGAAAAUUCAAGGAUUGUUUAAAGGUCUGUGAUCAUCACAUACAAGAUGUAACUCUGGUUAUUUCAGUCAUAUCUGUGACUCUAUCAUGUACAGUUUCCUGAAUUGUCA: 0.311
UCAUCCUUCCAGUUGUUGUGUAGCGUAUGGAACCAUGUCAUCCUUUUACUAGGCAAAUACACAUACUAUCUCACAUAGAUGAUUAUGAAACUGAAUGAAAACCUGUCAUG: 0.365
GUCGGUGGCUUAAAGUAACAUCUAUUUCCAUUGAUCCUAGGUUCUUCCUGACUGCUUUCUCCAACUGUUCACAGCAAAUGCUUGGAUUUUAUGCAGUAGGCAUUACUACA: 0.37
UUUUUUUUCUACUGAUCUACCCAAGUGUAGGUGAGCCGCAGCAGGGAGUGAUUCCUAGAAGACGGAUCAGUCUAGUCUGGCAGUCAAGGCUCAGGAGUUUGGGAGAGGGG: 0.429
AUUGCAUAUCUUUGCUAUUCAACAAUGGUGUCCUUCACCACAGUUUCUAAUCUAGAGCACGGAGAACUGGUCUGUCACUUUUAAAAUUAGAUGCCUUUGAUCAGAGUUUG: 0.73
GGCAGGUUCUGUGGAAGAAGUUUUUUGCCUGUUACGGGAAACUCAUCACACAAGAAGAGACAACUUCACUUUGAACAUUAGAUCCACUCAAGAUUAGUCCACGAAUGAUC: 0.561
UACUCUGCGUUGAUGUUUAUGAGAAGGUGGUCAUUAGAUGCAGUCUUUUCCUUUUUAAUCCCCUCUUAGCACUUCUGUGAGUGGAGAGGACAUUAAGUAAAAUUUGGAAU: 1.08

Study 3
Target: TAR DNA-binding protein 43, full length, His tag (TARDBP, Homo sapiens, UniProt Q13148, residues 1-414)
Technique: RNA Bind-n-Seq
Molecule type: RNA
Medium: in vitro
Concentration: 20 nM
Setting: 6-mer, flanks averaged, single round
Added: 150 mM KCl
Baseline: input library
Direction: higher = stronger binding
Measurement: 6-mer enrichment (R)
GUCGCU: 0.812
GUUCUG: 0.767
GAUACC: 0.689
UCAUGC: 0.621
GGUGGA: 3.28
AGGAAC: 0.826
UUAAAG: 0.661
CGCAUG: 0.938

Study 4
SMILES: FC(F)(F)c1ccc2c(c1)nc(-c1cccnc1)n2C1CC1
Read-out: cell-free assay
Technique: competition with immobilised ligand
Concentration: 1 µM
Measurement: remaining binding
EGFR (Homo sapiens, UniProt P00533): 86%
EPHA6 (Homo sapiens, UniProt Q9UF33): 100%
WNK2 (Homo sapiens, UniProt Q9Y3S1): 100%
OXSR1 (Homo sapiens, UniProt O95747): 100%

A few entries again (study 1):
COc1cc2ncnc(Nc3ccc(O)c(Br)c3)c2cc1OC: 95.9%
CCN(CC)CCNC(=O)c1c(C)[nH]c(/C=C2\C(=O)Nc3ccc(Cl)cc32)c1C: 29.3%
